Experimental data gathered from unrelated publications.
A part holds a random share of what one study measured. Values joined by “and” are separate records of one study, mostly repeats; a detail may differ. ± marks the error that the study gave.
UniProt Q8IZX4, sequence (whole entry, looked up): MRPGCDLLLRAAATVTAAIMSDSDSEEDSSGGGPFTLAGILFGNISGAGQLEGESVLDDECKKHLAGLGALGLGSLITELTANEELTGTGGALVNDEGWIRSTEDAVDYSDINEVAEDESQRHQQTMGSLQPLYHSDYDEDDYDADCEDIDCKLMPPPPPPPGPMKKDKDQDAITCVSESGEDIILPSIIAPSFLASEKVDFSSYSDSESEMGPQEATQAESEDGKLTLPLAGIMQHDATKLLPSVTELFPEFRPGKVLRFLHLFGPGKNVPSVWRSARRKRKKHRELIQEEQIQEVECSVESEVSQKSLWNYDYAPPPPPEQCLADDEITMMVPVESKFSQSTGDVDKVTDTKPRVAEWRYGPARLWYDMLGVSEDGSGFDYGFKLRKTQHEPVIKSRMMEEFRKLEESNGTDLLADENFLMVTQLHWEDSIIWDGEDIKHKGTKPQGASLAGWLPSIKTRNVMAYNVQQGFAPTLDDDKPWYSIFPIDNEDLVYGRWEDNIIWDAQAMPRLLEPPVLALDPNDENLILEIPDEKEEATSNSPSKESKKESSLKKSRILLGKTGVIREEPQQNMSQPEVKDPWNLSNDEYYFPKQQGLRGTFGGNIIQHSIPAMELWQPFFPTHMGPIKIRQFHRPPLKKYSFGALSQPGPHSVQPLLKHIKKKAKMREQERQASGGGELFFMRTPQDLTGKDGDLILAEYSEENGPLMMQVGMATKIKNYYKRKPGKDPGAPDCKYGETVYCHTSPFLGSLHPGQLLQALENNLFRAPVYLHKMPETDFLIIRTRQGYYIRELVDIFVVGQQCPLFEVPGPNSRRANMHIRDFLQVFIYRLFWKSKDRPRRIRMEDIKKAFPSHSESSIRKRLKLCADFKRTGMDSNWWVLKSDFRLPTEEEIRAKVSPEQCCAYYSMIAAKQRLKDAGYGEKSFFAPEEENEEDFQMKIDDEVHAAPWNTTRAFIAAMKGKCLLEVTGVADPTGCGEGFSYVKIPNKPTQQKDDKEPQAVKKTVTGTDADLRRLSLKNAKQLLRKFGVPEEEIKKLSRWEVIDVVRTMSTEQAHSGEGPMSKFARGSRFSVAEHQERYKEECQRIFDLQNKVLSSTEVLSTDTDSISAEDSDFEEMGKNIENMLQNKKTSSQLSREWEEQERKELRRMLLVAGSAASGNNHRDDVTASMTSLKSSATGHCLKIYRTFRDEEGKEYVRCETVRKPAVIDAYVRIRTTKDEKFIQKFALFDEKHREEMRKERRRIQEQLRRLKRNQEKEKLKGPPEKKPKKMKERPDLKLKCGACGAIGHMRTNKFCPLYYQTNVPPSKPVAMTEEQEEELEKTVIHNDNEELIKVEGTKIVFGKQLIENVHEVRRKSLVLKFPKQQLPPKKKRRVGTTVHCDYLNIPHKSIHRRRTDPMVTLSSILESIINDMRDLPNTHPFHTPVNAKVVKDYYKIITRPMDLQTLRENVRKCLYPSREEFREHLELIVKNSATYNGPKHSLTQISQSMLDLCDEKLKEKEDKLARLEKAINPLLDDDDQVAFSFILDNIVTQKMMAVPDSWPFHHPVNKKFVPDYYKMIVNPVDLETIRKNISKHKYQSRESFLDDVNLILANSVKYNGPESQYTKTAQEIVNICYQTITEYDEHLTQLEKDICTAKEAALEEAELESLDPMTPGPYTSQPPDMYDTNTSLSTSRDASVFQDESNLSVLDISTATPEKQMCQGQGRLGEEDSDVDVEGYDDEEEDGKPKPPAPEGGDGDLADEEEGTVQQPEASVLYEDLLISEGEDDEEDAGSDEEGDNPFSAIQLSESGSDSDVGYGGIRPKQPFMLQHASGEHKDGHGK
UniProt Q86U86, sequence (whole entry, looked up): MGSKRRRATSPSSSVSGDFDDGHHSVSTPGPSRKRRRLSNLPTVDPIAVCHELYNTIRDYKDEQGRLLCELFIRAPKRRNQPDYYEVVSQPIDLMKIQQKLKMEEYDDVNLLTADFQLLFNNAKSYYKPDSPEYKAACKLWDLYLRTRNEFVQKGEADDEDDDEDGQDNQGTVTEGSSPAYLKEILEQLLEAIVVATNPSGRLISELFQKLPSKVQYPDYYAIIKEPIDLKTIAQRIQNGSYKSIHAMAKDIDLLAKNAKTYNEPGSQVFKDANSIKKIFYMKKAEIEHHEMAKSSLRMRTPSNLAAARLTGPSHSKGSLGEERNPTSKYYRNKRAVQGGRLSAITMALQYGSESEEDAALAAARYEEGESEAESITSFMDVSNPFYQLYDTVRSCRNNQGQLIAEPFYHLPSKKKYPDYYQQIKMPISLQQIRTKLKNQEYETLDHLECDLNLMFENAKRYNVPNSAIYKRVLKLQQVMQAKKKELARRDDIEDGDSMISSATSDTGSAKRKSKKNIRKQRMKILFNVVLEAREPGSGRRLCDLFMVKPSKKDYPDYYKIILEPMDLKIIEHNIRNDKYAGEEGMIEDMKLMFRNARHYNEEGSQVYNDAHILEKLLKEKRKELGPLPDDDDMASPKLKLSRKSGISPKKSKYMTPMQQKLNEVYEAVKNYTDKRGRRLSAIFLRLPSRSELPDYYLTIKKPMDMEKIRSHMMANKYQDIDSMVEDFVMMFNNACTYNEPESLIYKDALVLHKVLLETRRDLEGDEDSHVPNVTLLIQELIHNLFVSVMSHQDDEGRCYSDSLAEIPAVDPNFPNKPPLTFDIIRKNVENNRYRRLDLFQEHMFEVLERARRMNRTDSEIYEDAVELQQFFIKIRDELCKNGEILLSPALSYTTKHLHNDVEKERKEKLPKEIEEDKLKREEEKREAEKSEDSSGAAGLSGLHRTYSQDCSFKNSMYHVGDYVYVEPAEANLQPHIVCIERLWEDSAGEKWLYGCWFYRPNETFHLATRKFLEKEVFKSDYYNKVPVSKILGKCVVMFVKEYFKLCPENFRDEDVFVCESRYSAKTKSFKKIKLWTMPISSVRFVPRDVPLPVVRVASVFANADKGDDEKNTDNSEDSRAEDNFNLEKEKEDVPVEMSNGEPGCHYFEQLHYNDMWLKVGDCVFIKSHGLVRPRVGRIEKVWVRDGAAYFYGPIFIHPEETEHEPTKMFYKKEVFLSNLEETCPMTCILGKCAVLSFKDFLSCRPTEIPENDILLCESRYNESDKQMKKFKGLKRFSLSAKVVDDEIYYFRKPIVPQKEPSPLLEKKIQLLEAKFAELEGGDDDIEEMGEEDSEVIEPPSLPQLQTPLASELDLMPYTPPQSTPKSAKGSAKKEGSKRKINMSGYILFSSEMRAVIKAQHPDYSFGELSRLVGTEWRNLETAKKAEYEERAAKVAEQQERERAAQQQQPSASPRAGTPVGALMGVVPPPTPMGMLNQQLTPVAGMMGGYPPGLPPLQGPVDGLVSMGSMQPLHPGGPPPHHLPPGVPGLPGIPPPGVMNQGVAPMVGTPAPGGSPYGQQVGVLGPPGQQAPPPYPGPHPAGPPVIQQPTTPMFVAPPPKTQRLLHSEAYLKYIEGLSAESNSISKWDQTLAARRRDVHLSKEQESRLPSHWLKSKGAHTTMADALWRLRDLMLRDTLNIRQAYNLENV
UniProt P25440, sequence (whole entry, looked up): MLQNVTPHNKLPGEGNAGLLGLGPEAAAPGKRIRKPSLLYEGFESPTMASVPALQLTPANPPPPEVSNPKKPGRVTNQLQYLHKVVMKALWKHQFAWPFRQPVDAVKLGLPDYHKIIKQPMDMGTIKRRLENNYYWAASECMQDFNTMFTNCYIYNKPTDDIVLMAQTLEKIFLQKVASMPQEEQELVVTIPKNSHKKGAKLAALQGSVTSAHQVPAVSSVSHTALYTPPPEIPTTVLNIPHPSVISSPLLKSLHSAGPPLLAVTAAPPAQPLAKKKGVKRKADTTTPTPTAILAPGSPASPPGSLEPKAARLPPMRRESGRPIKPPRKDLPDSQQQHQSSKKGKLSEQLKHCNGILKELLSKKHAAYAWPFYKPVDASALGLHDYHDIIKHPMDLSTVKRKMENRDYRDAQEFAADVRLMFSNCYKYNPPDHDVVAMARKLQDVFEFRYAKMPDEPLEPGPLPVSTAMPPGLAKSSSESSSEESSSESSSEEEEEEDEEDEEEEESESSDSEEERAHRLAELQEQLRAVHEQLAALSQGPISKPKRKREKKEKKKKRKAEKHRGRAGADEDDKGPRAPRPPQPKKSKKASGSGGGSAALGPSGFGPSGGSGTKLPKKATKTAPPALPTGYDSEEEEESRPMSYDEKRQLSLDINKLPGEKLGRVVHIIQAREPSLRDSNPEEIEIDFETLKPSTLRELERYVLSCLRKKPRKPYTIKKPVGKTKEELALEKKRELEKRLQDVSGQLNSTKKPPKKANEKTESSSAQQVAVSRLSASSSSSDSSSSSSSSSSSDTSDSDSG
UniProt Q6P2M8, sequence (whole entry, looked up): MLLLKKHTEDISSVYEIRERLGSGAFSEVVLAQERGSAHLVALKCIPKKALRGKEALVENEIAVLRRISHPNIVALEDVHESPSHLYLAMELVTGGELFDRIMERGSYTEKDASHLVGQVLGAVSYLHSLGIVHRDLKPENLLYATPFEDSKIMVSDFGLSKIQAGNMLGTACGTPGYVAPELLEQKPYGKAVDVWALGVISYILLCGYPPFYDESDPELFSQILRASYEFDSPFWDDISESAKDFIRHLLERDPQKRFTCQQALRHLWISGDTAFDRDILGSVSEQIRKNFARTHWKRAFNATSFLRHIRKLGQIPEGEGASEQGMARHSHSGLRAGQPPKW

Block 1
Structure (SMILES): CNC(=O)c1ccc(Nc2ncc(C(F)(F)F)c(NCc3nccnc3N(C)S(C)(=O)=O)n2)cc1
Technique: competition with immobilised ligand
target	assay	setting	remaining binding [%]
DYRK1B (Homo sapiens, UniProt Q9Y463)	cell-free assay	0.1 µM	79
CAMK2B (Homo sapiens, UniProt Q13554)	cell-free assay	0.1 µM	86
STK35 (Homo sapiens, UniProt Q8TDR2)	cell-free assay	0.1 µM	100
PRKCI (Homo sapiens, UniProt P41743)	cell-free assay	0.1 µM	84
FLT4 (Homo sapiens, UniProt P35916)	cell-free assay	0.1 µM	39
MAP3K15 (Homo sapiens, UniProt Q6ZN16)	cell-free assay	0.1 µM	95
ANKK1 (Homo sapiens, UniProt Q8NFD2)	cell-free assay	0.1 µM	88
MELK (Homo sapiens, UniProt Q14680)	cell-free assay	0.1 µM	23
MAPKAPK5 (Homo sapiens, UniProt Q8IW41)	cell-free assay	0.1 µM	76
PIK3CD (Homo sapiens, UniProt O00329)	cell-free assay	0.1 µM	90
EIF2AK2 (Homo sapiens, UniProt P19525)	cell-free assay	0.1 µM	100
Tyrosine-protein kinase JAK1, JH2 (JAK1, Homo sapiens, UniProt P23458)	cell-free assay	0.1 µM	29
Non-receptor tyrosine-protein kinase TYK2, JH2 (TYK2, Homo sapiens, UniProt P29597)	cell-free assay	0.1 µM	87
MAP4K1 (Homo sapiens, UniProt Q92918)	cell-free assay	0.1 µM	18
PNCK (Homo sapiens, UniProt Q6P2M8)	cell-free assay	0.1 µM	100
Myosin-IIIb (MYO3B, Homo sapiens, UniProt Q8WXR4)	binding	0.1 µM	100
FGFR2 (Homo sapiens, UniProt P21802)	cell-free assay	0.1 µM	100
Ribosomal protein S6 kinase alpha-5, C-terminal kinase domain (RPS6KA5, Homo sapiens, UniProt O75582)	cell-free assay	0.1 µM	80
CLK2 (Homo sapiens, UniProt P49760)	binding	1 µM	0
CSNK1G3 (Homo sapiens, UniProt Q9Y6M4)	cell-free assay	0.1 µM	100
STK32A (Homo sapiens, UniProt Q8WU08)	cell-free assay	0.1 µM	71
PRKCQ (Homo sapiens, UniProt Q04759)	cell-free assay	0.1 µM	89
FLT3 (Homo sapiens, UniProt P36888, F691L/ITD)	cell-free assay	0.1 µM	9
MAP4K4 (Homo sapiens, UniProt O95819)	cell-free assay	0.1 µM	98
eIF-2-alpha kinase GCN2, C-terminal kinase domain (EIF2AK4, Homo sapiens, UniProt Q9P2K8, S808G)	cell-free assay	0.1 µM	27

Block 2
Target: Eukaryotic initiation factor 4A-III (Homo sapiens, UniProt P38919)
UniProt P38919, sequence (whole entry, looked up): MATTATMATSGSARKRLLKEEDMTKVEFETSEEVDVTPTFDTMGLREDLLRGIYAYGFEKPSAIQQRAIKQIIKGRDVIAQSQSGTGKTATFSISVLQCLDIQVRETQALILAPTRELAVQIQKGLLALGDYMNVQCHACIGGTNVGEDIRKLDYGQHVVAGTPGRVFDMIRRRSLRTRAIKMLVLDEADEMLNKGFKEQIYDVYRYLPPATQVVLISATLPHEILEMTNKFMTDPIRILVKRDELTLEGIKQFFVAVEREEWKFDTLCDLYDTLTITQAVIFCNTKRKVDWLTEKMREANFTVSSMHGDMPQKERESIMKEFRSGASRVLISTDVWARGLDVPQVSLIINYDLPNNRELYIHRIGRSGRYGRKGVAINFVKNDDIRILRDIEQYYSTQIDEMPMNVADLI
Effect on: RNA clamping
Technique: fluorescence polarization
Tested at: concentration not given
With: FAM-labelled poly r(AG)8 RNA
Compound	fluorescence polarization change
C=CCN1c2cc(OC)cc(OC)c2[C@]2(O)[C@H](O)[C@H](C(=O)OC)[C@@H](c3ccccc3)[C@]12c1ccc(OC)cc1	-0.5 mP
C#CCOc1cc(OC)c2c(c1)O[C@@]1(c3ccc(OC)cc3)[C@H](c3ccccc3)c3c(nc(-c4ccccc4)[nH]c3=O)[C@@]21O	0.3 mP
COc1ccc([C@@]23Oc4cc(OC)cc(OC)c4[C@]2(O)[C@H](O)[C@H](C(=O)c2cc4ccccc4n2C)[C@H]3c2ccccc2)cc1	8.6 mP
COC(=O)[C@@H]1[C@@H](c2ccccc2)[C@]2(c3ccc(OC)cc3)Oc3cc(OC)cc(OC)c3[C@@]23N2CCCCC2=N[C@@]13O	38.1 mP
COc1ccc([C@@]23Oc4cc(OC)cc(OC)c4[C@]2(O)[C@H](O)[C@H](C(=O)c2oc4ccccc4c2C)[C@H]3c2ccccc2)cc1	2.8 mP
COc1ccc([C@@]23Oc4cc(O)cc(OC)c4[C@]2(O)[C@H](O)[C@H](C(=O)c2ccco2)[C@H]3c2ccccc2)cc1	3.5 mP
COc1ccc([C@@]23Oc4cc(OC)cc(OC)c4[C@]2(O)[C@H](O)[C@H](C(=O)c2nccn2C)[C@H]3c2ccccc2)cc1	21.2 mP
COc1cc(OC)c2c(c1)O[C@@]1(c3ccc(OC)c(O)c3)[C@H](c3ccccc3)[C@@H](C(=O)N(C)OC)[C@@H](O)[C@@]21O	26.1 mP
CCCN(CCC)[C@@]12C(=O)[C@H](C(=O)OC)[C@@H](c3ccccc3)[C@]1(c1ccc(OC)cc1)Oc1cc(OC)cc(OC)c12	6.2 mP
COc1ccc([C@@]23Oc4cc(OC)cc(OC)c4[C@]2(O)c2nc(-c4ccc(C)cc4)[nH]c(=O)c2[C@H]3c2ccccc2)cc1	5.4 mP and 20.7 mP
CCCc1ccc(C(=O)[C@H]2[C@@H](O)[C@@]3(O)c4c(OC)cc(OC)cc4O[C@@]3(c3ccc(OC)cc3)[C@@H]2c2ccccc2)o1	6.4 mP

Block 3
Compound: C[S+]([O-])c1ccc(-c2nc(-c3ccncc3)c(-c3ccc(F)cc3)[nH]2)cc1 (centres unmarked)
Tested at: 10 µM
target	assay	ΔTm [°C]
Protein polybromo-1, BD3 (PBRM1, Homo sapiens, UniProt Q86U86)	thermal shift	0.87 ± 0.18
ATAD2B (Homo sapiens, UniProt Q9ULI0)	thermal stability, DSF	0.39
Transcription initiation factor TFIID subunit 1, BD2 (TAF1, Homo sapiens, UniProt P21675)	thermal stability, DSF	0.29
KAT2B (Homo sapiens, UniProt Q92831)	thermal stability, DSF	0.43
SP140 (Homo sapiens, UniProt Q13342)	thermal stability, DSF	1.03
Transcription initiation factor TFIID subunit 1-like, BD1 (TAF1L, Homo sapiens, UniProt Q8IZX4)	thermal stability, DSF	0.21
Bromodomain-containing protein 2, BD2 (BRD2, Homo sapiens, UniProt P25440)	thermal stability, DSF	1.4
Protein polybromo-1, BD6 (PBRM1, Homo sapiens, UniProt Q86U86)	thermal shift	1.07 ± 0.3
Peregrin, bromodomain (BRPF1, Homo sapiens, UniProt P55201)	thermal stability, DSF	2.26
Transcription initiation factor TFIID subunit 1-like, BD2 (TAF1L, Homo sapiens, UniProt Q8IZX4)	thermal stability, DSF	-0.23
Bromodomain-containing protein 2, BD1 (BRD2, Homo sapiens, UniProt P25440)	thermal stability, DSF	0.92
Bromodomain-containing protein 3, BD2 (BRD3, Homo sapiens, UniProt Q15059)	thermal stability, DSF	2.2
CREBBP (Homo sapiens, UniProt Q92793)	thermal stability, DSF	0.92
Bromodomain testis-specific protein, BD1 (BRDT, Homo sapiens, UniProt Q58F21)	thermal stability, DSF	0.85

Block 4
Target: Inhibitor of nuclear factor kappa-B kinase subunit alpha (CHUK, Homo sapiens, UniProt O15111)
Effect on: enzyme activity
Action: inhibitor
Tested at: 0.5 µM
Relative to: control
Target sequence (O15111 1-745): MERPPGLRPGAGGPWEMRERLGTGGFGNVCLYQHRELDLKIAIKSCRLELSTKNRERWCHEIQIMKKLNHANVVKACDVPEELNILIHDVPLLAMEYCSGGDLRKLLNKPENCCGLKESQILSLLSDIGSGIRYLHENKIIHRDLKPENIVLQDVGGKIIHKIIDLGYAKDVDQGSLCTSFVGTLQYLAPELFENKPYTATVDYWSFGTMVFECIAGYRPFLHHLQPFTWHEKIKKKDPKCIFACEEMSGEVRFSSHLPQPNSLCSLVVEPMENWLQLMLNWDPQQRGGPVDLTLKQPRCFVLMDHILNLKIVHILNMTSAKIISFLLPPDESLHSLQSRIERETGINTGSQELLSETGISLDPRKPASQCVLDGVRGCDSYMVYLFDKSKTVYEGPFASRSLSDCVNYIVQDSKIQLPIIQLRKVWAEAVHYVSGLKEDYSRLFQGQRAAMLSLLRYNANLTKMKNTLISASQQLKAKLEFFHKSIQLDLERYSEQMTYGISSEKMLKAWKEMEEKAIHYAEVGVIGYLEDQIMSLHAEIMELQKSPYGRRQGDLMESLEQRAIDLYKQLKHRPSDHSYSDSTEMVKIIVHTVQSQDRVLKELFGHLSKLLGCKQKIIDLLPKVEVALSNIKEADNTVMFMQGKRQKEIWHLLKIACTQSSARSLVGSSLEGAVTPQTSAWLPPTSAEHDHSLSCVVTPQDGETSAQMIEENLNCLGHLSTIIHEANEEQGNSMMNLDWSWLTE
SMILES	remaining activity [%]
Cc1cc2ncc(-c3ccccc3)nc2cc1C	86.9
c1ccc(-c2[nH]ncc2-c2ccnc3ccccc23)nc1	94.2
C[C@@H]1CCN(C(=O)CC#N)C[C@@H]1N(C)c1ncnc2[nH]ccc12	95
Nc1cccc(-c2cc3c(Oc4cccc(O)c4)ncnc3[nH]2)c1	102
CCN(CC)CCNC(=O)c1c(C)[nH]c(/C=C2\C(=O)Nc3ccc(F)cc32)c1C	92.4
COc1cc2ncnc(Nc3cccc(Cl)c3)c2cc1OC	103
N#Cc1c(NC(=O)c2cccc3ccccc23)sc2c1CCCC2	99.6
O=C(NC(NC(=S)Nc1ccc(F)c([N+](=O)[O-])c1)C(Cl)(Cl)Cl)C(c1ccccc1)c1ccccc1 (centres unmarked)	91.5
Cc1cn(-c2cc(NC(=O)c3ccc(C)c(Nc4nccc(-c5cccnc5)n4)c3)cc(C(F)(F)F)c2)cn1	98.7
O=c1cc(-c2cccc3c2Sc2ccccc2S3)oc(N2CCOCC2)c1	87.4
O=C1c2ccccc2-c2n[nH]c3cccc1c23	111
CCN(CC)C(=O)c1ccc(Nc2nc(OCC3CCCCC3)c3[nH]cnc3n2)cc1	103
Cc1nc2cc3nc(-c4cccs4)cnc3cc2n1C	96.2
CN(C)C[C@H]1CCn2c(c(C3=C(c4cn(C)c5ccccc45)C(=O)NC3=O)c3ccccc32)C1	103
CCOc1nc(NC(=O)Cc2cc(OC)ccc2OC)cc(N)c1C#N	96.1
c1ccc(-c2cnc(Nc3ccc(OCCN4CCCC4)cc3)s2)cc1	93.3
O=C1C(Cl)=C(N2C(=O)CCC2=O)C(=O)c2ccccc21	101
Cn1nc2c3c(cccc31)C(=O)c1ccccc1-2	97
COc1cc2ncnc(Nc3ccc(O)c(Br)c3)c2cc1OC	107
O=C(Nc1cccc(Nc2nccc(Nc3cccc(C(F)(F)F)c3)n2)c1)C1CC1	95.7
N#C/C(=C\c1ccc(O)c(O)c1)C(=O)NCc1ccccc1	103
CN([C@@H](Cc1ccc(OS(=O)(=O)c2cccc3cnccc23)cc1)C(=O)N1CCN(c2ccccc2)CC1)S(=O)(=O)c1cccc2cnccc12	93.4
CCN(CC)CCNC(=O)c1c(C)[nH]c(/C=C2\C(=O)Nc3ccc(Cl)cc32)c1C	102
Ic1cccc(CSc2nnc(-c3ccncc3)o2)c1	96.5
